Experimental data from different studies.
Each numbered part is a random draw from the data of one study; scales do not carry over between parts.

Study 1 — method: RNA Bind-n-Seq; molecule type: RNA; sample: in vitro; concentration: 365 nM; relative to: no-protein control; direction: higher = stronger binding
Target: RNA binding protein fox-1 homolog 2, RRM domain, GST-SBP tag (RBFOX2, Homo sapiens, UniProt O43251-10, residues 100-194)
Notes: natural RNA segment, single round, ends assumed
Constant ends, left off below: GGGAGUUCUACAGUCCGACGAUC … UGGAAUUCUCGGGUGCCAA
Target sequence (chain): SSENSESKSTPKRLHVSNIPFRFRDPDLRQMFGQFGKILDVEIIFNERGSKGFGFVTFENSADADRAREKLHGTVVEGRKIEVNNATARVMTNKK
| Oligonucleotide | RBNS enrichment (R) |
| --- | --- |
| GUAAAUUAACUCACCAGAUUUACUGGGCCUGAACUCAUUCUCUUCUUGCUAUAUGAUUUAGCAAGUUCUAGAAGGUCUCCAAGACAAUAAUUACAUUGGCACAAUGUAUA | 0.475 |
| AUUGCUUGAAUCACACUUUUACUGUGGCUGAAUUUUUUGUGCCUAGUUAUAAAAAAGACACUUCGAAUUAUUUGAGUUAUAAAUAGCUUUUGUGACAGGAGCAUACCCAG | 0.4 |
| UACCCUGCGCGCAUCUAUGUCUUGUUUGGAAUAUUGUCUCUUCAACCCCCUGUUCAUGUCCUUCUCACUCAUGAUCGAUGUCUUGUCUGUGCACUGUCUCUAACCCAAAU | 2.71 |
| AGCAUAAUCAAUAACUCGCAUAUGAAGUAAAAAGGAAUACUGUGAAAGGGGAGUACUCUUGUACAGCCAGUUCUUUUAUGCAAAAAUCUAUGCAUUUUUACAAUCUUAUA | 0.609 |
| UCACAUUUAUUUUUCUUAAAGUACUUUUGUUCCAAAGGGGCCUUGUGGCGCCAGAGAGCUAGGAACUGUGGCUCCGUCCAUACCCGUUUCCACACACUGACCCUUCAGAG | 0.166 |
| UUAUAGAUCUUUUGACAGUUUCUCUGUUUAGGGGAGCCUAGACUGAUAUCAAGUUUCUUCAUAUCAAAGCUUCAUUGGUGACCUCAUUUGCUUUACAAGUGACCAGCCAU | 0.195 |
| CACCCUUUGUACCAGAUGUUGAGUGACCAGCUCUGUGGCCCUGUGUCGUCAGAGGCUUGUGAUUAACUGUGGCGGCAGACACAGCUUGUCCACAGCUUGGGCCAGGCUUC | 0.243 |
| AGACCAGUCAGCCAGUUAGUAGAAACCCUGACUCUACUAAGAAAAUACAAAAAUUAGCUGGGCAUGGUGGCAUGCGCCUGUAGUCUCAGCUACCUGGGAGGCUGAGGAAG | 1.55 |
| AAGAUACUGACGUAGAACGGUAUUAGAAAAUGACACUUCAAAAAUGUUGGAUACCAAAGCACGGUAGCUGCCGGGUGAGCGGCAGUGAUUGGCAGAGAUGGGGACUUGAG | 2.4 |
| GAUCCUGGUUCUAUUCUGGGUAUUUCAUCCUGCCUUCCAGAGCACCUUCUGAAGUUCACAUCGUUGGCAUUUCCUUUUUAUGUUAUGCAUACUUUGGCUGAACAAACAUU | 0.21 |
| CUAGGGCAGAGCUCUGGGGGAUUGUUAUUUUACAUUACCUGGCCUAGAGUAGCAUAUUAGACAACAGUCAUCAUUGCAAGUAGGAGGACCGUAAAUGGCAUUUUACAUGA | 0.533 |
| GUAACAAGCCAGGGGACUCUUGGCCAAAAGAAAGAAAGGGAAGUUGCACUAGGGCUUGUCCGUCCAUAAGGAAUUCCCCUCUGCUUUGCUCAAAGGACCAAAUUUCUUUG | 0.504 |

Study 2 — method: protein-binding microarray; molecule type: double-stranded DNA, one strand shown; sample: in vitro; concentration: 2200 nM top; notes: 60-bp whole probe; with: salmon DNA 0.4 mg/ml; relative to: random background probes; direction: higher = stronger binding; constant ends, left off below: GCCTAGCAC … GTCTTGATTCGCTTGACGCTGCTG
Target: Interferon regulatory factor 7, full length, phosphomimetic (IRF7, Homo sapiens, UniProt Q92985, residues 1-503, S471D/S472D/S475D/S476D/S477D/S483D/S484D/S487D)
Construct (chain): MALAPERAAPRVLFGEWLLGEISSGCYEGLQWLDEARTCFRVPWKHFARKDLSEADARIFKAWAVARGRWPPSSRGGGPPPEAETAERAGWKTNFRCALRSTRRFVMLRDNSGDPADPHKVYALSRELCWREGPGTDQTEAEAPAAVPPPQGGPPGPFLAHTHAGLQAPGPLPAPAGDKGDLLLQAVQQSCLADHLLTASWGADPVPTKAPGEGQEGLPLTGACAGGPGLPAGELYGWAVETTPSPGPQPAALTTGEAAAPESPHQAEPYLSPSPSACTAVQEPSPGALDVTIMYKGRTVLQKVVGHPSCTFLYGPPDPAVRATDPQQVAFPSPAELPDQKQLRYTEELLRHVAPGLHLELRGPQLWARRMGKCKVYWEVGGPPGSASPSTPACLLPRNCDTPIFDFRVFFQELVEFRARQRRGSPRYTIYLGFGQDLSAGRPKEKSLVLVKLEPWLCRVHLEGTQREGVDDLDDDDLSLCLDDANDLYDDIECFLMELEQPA
| Oligonucleotide | fitted relative affinity [z-score] |
| --- | --- |
| TTAGGACTGCTACTGCGTTAGTGCTAG | -0.331 |
| GATGATTTCGGGTATCGAGACGTGCTA | 2.87 |
| TGTGGCTTAGCTGTCACCTCGTGCTAG | 0.0861 |
| GGCGGTATCCTTATCCTGACGTGCTAG | 0.279 |
| GGTCCTCTCTCTATTCAGAGGTGCTAG | 1.07 |
| TTAGTACTGGGGTTTCGGTTAGTGCTA | 3.54 |
| TTAGGTATGGACTTTCGGTTAGTGCTA | 5.36 |
| TTAGGTTTCGGGTTCCGGTTAGTGCTA | 10.2 |
| TTGGGTTTCGGTTCCGGTTAGTGCTAG | 9.98 |
| TTAGACCTCAGTATCGATTAGTGCTAG | 0.0625 |
| GACGGTTTCGGGACTGGAGACGTGCTA | 3.52 |
| TTCTGATTGAATCTCCCATTGTGCTAG | 0.959 |
| TTAGGACTGCTTATCCTTTTGTGCTAG | 0.562 |
| GACGAGCTCAGTCTCGAGACGTGCTAG | -0.222 |
| TCATCATTATTGTGTCAAACTGTGCTA | 0.752 |
| TCAAATTAGTGTTTCCCACTGTGCTAG | 0.511 |
| TCAGCTCTAGGTTCTCTGACTGTGCTA | 0.181 |
| TCATCTTGTTCTCTCTGACTGTGCTAG | 2.15 |
| GAAGGTATCGGGTTTCGGGACGTGCTA | 1.89 |
| TTAGAGCTGGGGACTGGATTAGTGCTA | -1.05 |
| TTAGGATTCGGTTCCGGTTAGTGCTAG | 3.52 |
| GACGGTATCCTGCTCCTGACGTGCTAG | 0.778 |
| CACCCTTGGAAGTATGACTCTGTGCTA | 0.337 |

Study 3 — method: protein-binding microarray; molecule type: double-stranded DNA, one strand shown; sample: in vitro; concentration: 0.8 µM; notes: whole 60-bp probe, no competitor; direction: higher = stronger binding; constant ends, left off below: … GTCTTGATTCGCTTGACGCTGCTG
Target: Centromere-binding protein 1, full length, N-terminal tag (CBF1, Saccharomyces cerevisiae, UniProt P17106, residues 1-351)
UniProt P17106, sequence (whole entry, looked up): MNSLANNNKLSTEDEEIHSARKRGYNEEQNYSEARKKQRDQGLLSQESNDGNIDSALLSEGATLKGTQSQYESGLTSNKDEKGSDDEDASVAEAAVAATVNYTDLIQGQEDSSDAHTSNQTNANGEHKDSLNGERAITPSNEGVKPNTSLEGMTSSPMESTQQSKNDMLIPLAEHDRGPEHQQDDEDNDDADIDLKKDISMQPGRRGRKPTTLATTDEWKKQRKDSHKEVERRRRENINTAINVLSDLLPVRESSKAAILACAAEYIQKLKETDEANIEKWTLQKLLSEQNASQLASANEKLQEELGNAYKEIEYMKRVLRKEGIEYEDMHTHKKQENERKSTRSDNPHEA
| Oligonucleotide | fluorescence intensity |
| --- | --- |
| CTAAAATTAGGAGATCATGAGGGAAAGGTTTAATTC | 554 a.u. |
| CTAATTCAAATGCGTGTGACAATATAGCGACGGTTC | 751 a.u. |
| GAATTTTTTTGGGTTTACGTGATACTGCGTAAATAG | 572 a.u. |
| CTAGAGTAGTAGGTTCACGTTATGTCTCTCTTTTTC | 545 a.u. |
| GAACTGTAAAATGAAAACGTGCGGAATCTTCATTAG | 639 a.u. |
| GAAATCATCATTGGTGGTGGTATGGCTTTCACCTAG | 490 a.u. |
| GAAGAAAGAGCAAGACATCAGGGACTGATGAACTAG | 538 a.u. |
| TGTACGAAGCTATTAAACCACATTATAGTAGTTAGG | 503 a.u. |
| GAAGTACGTTTTAACAACGTGAAGCACAACTGTTAG | 622 a.u. |
| TGTACGAAGCTATGTAACATGACTATAGTAGTTAGG | 624 a.u. |
| CTATAGGAACAGTGTCATGAAATAATGTTTTGTTTC | 527 a.u. |
| CTAAAAAAGAGCATTCACGCGATATACGATTTTTTC | 568 a.u. |
| CCTAACTACTATATCCACGTGATATAGCTTCGTACA | 10700 a.u. |
| TGTACGAAGCTATGTGGTGTGGTTATAGTAGTTAGG | 527 a.u. |
| CTAAGGGATGAGCTGAACGTGCAATTGATACCATTC | 571 a.u. |
| GAATAGAGCCAGCATCAGATGCAAAGCCATGCATAG | 483 a.u. |

Study 4 — method: RNA Bind-n-Seq; molecule type: RNA; sample: in vitro; concentration: 200 nM; notes: whole 134-nt RNA, ends assumed; with: 150 mM LiCl; relative to: input library; direction: higher = stronger binding; each molecule: 7-deaza-guanosine replaces G
Target: Fragile X messenger ribonucleoprotein 1, C-terminal low-complexity region (Fmr1, Mus musculus, UniProt P35922)
Constant ends, left off below: GGGAGUUCUACAGUCCGACGAUC … UGGAAUUCUCGGGUGUCAAGG
| Oligonucleotide | log2 enrichment |
| --- | --- |
| UCCUGUGCUACACAUCGUAUGUACCGAAUCGGGGAAAAAGGGAAAAAGGGGAAAAAGGGGAAAGUAUUAUGUUACGCCGUUCGGAUCUGC | -0.6 |
| AAGUCCUGUGCUACACAUCGUAUGUACCGAAUCGGAAAAAAAGGUGGAAAAAAAGGAAAGUAUUAUGUUACGCCGUUCGGAUCUGCACUU | -2.18 |
| CUGUGCUACACAUCGUAUGUACCGAAUCGGGCCCCCCGGGGCCCCCCGGGGCCCCCCGGGGAAAGUAUUAUGUUACGCCGUUCGGAUCUG | -2.89 |
| AAGUCCUGUGCUACACAUCGUAUGUACCGAAUCGGGAAAAAGGGUUUUUGGGUGGGAAAGUAUUAUGUUACGCCGUUCGGAUCUGCACUU | -1.66 |
| UCAAGUCCUGUGCUACACAUCGUAUGUACCGAAUCGGUUUGGUUUGGAAAAAGGAAAGUAUUAUGUUACGCCGUUCGGAUCUGCACUUCC | -1.03 |
| CCUGUGCUACACAUCGUAUGUACCGAAUCGGGGAAAGGGGAAAAAAAGGGGUUUUUGGGGAAAGUAUUAUGUUACGCCGUUCGGAUCUGC | -0.174 |
| UCAAGUCCUGUGCUACACAUCGUAUGUACCGAAUCGUGUGUGUGUGUGUGUGUGAAAGUAUUAUGUUACGCCGUUCGGAUCUGCACUUCC | -0.827 |
| CAAGUCCUGUGCUACACAUCGUAUGUACCGAAUCGGAAAGGUUUUUUUGGAAAGGAAAGUAUUAUGUUACGCCGUUCGGAUCUGCACUUC | -1.97 |
| GCAGGAAGUAAAAACAAAUGGAAAUGCUUCGGAUAGUGGCAGGGGUGGGGGUUGCUAUGGAAAGGGUGGGAUGGGAGUGGGUAAAGAGUU | 1.3 |
| ACCAUGCAGGUGGGCAUCUUUGGGAAGUGGGGCAAGGGGGGGAUAGGGAGGGGGGUAACACUUUGGGAACAGGUGGUCCCAGGUCGUAAA | 1.4 |
| UCAAGUCCUGUGCUACACAUCGUAUGUACCGAAUCGGGGUUGGUUGGGGUUGGGGAAAGUAUUAUGUUACGCCGUUCGGAUCUGCACUUC | -1.11 |

For quick reference, copied from above (study 3):
| Oligonucleotide | fluorescence intensity |
| --- | --- |
| CTAATTCAAATGCGTGTGACAATATAGCGACGGTTC | 751 a.u. |
| GAATTTTTTTGGGTTTACGTGATACTGCGTAAATAG | 572 a.u. |
| CTAGAGTAGTAGGTTCACGTTATGTCTCTCTTTTTC | 545 a.u. |
| GAACTGTAAAATGAAAACGTGCGGAATCTTCATTAG | 639 a.u. |
| GAAATCATCATTGGTGGTGGTATGGCTTTCACCTAG | 490 a.u. |
| GAAGAAAGAGCAAGACATCAGGGACTGATGAACTAG | 538 a.u. |
| TGTACGAAGCTATTAAACCACATTATAGTAGTTAGG | 503 a.u. |
| GAAGTACGTTTTAACAACGTGAAGCACAACTGTTAG | 622 a.u. |
| TGTACGAAGCTATGTAACATGACTATAGTAGTTAGG | 624 a.u. |
| CTATAGGAACAGTGTCATGAAATAATGTTTTGTTTC | 527 a.u. |
